Published values pooled from the literature.
Parts stem from different laboratories: compare values within a part only. Values joined by “and” are separate records of one study, mostly repeats; a detail may differ.
UniProt O15146, sequence (whole entry, looked up): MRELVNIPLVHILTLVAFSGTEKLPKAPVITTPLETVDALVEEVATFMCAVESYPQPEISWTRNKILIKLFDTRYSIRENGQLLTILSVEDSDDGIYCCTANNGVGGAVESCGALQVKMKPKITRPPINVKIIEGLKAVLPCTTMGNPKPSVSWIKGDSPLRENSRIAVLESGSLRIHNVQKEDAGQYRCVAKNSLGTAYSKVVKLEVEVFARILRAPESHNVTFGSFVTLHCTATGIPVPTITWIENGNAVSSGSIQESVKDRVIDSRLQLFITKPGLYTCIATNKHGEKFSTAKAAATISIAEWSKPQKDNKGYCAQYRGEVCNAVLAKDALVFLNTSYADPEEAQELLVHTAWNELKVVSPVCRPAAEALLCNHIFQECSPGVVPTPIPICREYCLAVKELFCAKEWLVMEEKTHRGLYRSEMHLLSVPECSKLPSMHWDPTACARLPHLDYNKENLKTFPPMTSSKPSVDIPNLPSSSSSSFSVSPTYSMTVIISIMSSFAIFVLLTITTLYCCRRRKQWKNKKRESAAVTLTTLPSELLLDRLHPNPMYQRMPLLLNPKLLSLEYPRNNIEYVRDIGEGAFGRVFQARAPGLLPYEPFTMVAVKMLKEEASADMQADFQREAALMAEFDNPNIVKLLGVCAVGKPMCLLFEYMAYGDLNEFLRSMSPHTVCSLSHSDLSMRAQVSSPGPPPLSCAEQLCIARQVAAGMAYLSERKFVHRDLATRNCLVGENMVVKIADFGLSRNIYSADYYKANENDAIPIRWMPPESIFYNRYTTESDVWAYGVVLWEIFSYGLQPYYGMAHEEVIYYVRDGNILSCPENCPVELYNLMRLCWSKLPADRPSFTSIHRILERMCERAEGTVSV
UniProt P45983, sequence (whole entry, looked up): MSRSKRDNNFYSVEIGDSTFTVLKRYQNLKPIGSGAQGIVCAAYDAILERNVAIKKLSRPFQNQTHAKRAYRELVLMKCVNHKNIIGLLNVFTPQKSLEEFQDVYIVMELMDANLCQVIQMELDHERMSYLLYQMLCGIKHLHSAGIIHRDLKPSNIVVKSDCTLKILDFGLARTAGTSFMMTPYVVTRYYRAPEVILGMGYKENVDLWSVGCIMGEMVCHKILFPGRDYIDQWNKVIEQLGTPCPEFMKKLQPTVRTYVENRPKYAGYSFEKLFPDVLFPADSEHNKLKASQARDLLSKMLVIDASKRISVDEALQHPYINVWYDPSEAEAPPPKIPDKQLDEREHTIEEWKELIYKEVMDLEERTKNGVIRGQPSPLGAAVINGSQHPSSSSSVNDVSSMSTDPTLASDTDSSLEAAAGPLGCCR
UniProt Q8NE63, sequence (whole entry, looked up): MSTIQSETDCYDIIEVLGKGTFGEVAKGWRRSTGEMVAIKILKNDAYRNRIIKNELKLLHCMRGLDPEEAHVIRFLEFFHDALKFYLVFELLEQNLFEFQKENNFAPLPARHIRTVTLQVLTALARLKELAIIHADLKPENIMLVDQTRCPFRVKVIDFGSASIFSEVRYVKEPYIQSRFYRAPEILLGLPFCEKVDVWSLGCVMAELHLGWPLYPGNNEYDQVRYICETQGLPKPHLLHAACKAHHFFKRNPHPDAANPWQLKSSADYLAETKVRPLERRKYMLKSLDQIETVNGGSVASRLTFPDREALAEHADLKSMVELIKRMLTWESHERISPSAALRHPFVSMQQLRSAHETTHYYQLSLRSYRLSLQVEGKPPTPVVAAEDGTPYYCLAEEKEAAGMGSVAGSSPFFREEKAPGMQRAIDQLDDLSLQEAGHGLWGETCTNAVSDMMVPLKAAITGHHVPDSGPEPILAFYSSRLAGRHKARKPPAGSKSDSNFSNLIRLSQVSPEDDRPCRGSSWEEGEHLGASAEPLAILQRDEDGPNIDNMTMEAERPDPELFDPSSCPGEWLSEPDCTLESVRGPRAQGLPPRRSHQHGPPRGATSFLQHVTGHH
UniProt Q9P0L2, sequence (whole entry, looked up): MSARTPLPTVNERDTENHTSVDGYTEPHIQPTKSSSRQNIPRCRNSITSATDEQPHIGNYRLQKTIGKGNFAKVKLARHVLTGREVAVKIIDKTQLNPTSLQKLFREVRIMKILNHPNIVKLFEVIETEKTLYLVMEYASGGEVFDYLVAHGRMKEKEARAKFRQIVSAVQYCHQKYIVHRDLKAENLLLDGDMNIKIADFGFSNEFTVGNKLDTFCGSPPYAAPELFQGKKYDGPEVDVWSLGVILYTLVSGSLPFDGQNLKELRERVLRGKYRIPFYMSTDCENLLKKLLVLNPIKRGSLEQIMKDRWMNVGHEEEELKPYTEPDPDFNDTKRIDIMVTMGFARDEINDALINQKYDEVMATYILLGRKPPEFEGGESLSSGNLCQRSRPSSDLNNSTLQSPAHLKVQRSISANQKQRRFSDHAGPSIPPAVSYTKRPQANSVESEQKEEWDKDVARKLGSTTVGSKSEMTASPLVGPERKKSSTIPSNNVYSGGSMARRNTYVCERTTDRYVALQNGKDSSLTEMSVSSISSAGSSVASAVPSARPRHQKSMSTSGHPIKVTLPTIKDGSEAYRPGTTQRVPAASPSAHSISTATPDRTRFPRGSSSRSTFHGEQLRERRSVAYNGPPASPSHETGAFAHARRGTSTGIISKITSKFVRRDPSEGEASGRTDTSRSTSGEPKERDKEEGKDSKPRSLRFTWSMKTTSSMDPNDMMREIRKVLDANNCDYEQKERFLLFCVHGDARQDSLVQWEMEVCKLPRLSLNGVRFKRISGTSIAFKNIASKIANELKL
UniProt Q32MK0, sequence (whole entry, looked up): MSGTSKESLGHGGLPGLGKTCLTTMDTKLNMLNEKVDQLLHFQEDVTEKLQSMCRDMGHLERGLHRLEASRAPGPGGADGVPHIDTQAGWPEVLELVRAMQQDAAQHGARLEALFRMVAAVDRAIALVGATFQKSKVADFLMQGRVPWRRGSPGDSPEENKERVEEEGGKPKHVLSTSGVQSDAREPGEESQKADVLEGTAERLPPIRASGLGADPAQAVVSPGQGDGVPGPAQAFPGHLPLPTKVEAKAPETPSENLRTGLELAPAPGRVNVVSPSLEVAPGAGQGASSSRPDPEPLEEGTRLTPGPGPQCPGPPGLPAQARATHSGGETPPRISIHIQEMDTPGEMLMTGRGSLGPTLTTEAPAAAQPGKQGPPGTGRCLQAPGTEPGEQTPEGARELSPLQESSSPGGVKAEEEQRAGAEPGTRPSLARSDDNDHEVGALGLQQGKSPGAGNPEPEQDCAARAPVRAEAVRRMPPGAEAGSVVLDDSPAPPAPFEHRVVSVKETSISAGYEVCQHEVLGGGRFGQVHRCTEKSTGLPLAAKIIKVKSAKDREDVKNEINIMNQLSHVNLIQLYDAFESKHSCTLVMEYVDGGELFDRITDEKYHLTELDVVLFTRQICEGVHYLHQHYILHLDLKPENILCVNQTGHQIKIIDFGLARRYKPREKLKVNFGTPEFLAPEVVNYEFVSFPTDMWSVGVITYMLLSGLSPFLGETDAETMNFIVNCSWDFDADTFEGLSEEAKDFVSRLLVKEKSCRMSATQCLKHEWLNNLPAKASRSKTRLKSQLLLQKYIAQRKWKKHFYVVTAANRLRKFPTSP
UniProt Q8IYT8, sequence (whole entry, looked up): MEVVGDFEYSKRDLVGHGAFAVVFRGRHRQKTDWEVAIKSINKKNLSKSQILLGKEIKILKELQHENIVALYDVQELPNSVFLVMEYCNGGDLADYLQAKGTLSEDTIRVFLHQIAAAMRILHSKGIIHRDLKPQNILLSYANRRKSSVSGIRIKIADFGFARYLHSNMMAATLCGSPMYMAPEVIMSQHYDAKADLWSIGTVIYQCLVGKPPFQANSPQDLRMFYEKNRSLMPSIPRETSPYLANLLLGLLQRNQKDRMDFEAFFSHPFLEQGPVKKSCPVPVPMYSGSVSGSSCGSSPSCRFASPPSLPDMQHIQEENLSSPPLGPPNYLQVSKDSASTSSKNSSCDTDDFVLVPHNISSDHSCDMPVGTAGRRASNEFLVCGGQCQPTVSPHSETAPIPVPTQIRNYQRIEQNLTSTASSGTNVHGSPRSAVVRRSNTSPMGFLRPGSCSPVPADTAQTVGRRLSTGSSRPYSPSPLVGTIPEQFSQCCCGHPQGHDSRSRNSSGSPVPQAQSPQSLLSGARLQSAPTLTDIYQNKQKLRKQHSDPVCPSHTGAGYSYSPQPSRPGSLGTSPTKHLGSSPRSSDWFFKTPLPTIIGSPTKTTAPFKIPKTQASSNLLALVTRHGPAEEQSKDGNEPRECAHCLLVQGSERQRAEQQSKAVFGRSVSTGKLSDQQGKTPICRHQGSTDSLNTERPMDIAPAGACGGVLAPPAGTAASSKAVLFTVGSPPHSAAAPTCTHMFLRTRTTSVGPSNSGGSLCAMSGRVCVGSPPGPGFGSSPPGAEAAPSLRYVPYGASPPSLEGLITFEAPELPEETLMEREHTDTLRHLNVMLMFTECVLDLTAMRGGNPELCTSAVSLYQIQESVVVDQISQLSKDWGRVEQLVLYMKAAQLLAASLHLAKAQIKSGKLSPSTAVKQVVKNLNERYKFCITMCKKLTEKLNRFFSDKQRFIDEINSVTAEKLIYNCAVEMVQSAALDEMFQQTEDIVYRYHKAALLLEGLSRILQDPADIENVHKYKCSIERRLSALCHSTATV
UniProt Q96NX5, sequence (whole entry, looked up): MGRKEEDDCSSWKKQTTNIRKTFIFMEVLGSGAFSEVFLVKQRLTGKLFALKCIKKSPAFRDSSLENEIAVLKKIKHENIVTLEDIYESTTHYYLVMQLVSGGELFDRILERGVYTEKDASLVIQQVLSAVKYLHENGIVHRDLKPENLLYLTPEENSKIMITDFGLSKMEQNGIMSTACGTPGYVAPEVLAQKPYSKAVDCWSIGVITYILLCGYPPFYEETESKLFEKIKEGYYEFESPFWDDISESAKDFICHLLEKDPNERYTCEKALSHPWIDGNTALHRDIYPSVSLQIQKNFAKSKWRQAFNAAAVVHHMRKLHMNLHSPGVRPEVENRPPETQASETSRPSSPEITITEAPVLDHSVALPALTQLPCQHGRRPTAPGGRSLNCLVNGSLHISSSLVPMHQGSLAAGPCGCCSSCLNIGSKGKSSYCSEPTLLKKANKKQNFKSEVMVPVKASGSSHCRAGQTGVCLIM

Set 1
Host: human
Matrix: microsomes or S9
Tested at: 2 µM
Time: 0.5 h
| Structure (SMILES) | remaining compound [%] |
| --- | --- |
| CN(C)C(=O)NC1CCC(Nc2ncnc3[nH]ccc(=O)c23)CC1 (stereo not shown) | > 99.9 |
| COc1c(C)c2c(c(OC)c1C/C=C(\C)CCC(=O)N1CCOCC1)C(=O)OC2 | 8.25 |
| Cc1ccc(C2(c3noc(Cn4ccnc4)n3)CCCC2)cc1 | 62.7 |
| Cc1ccc(-c2sc3cc(Br)ccc3c2-c2ccc(C)cc2)cc1 | 73 |
| CCn1nc(C)c(CNc2nnc(C3CCCCC3)o2)c1C | 91.4 |

Set 2
Cell line: mouse MPNST tumor cells
Method: high-content immunofluorescence imaging
Item: nuclear SOX9
Tested at: 10 µM
Time: 12 h
Setting: mean of 2 replicates
Reference: DMSO control
Direction: higher = more nuclear SOX9
| Structure (SMILES) | nuclear SOX9 intensity |
| --- | --- |
| COc1ccc2cc(OCC3(C(=O)O)CN(C(=O)c4ccc(F)cc4)C3)ccc2c1 | 89.7 % of DMSO |
| CSc1nc(-c2ccnc(NC(C)c3ccccc3)c2)c(-c2ccc(F)cc2)[nH]1 (stereo not shown) | 152 % of DMSO |
| Cn1ccnc1S | 94.7 % of DMSO |
| CCCCCCCCCCCCCCCC[N+](C)(C)CCN(Cc1ccc(OC)cc1)c1ncccn1 | 140 % of DMSO |

Set 3
Compound: CC(C)(C(=O)O)[C@H](NC(=O)Cc1cccc(I)c1)c1ccc2oc(=O)[nH]c2c1
Method: Incucyte 3D growth
Tested at: 30 µM
Direction: higher = more growth
| cell line | conditions | spheroid area |
| --- | --- | --- |
| A375 | 72 h | 5.05e+07 a.u. and 4.02e+07 a.u. and 4.58e+07 a.u. and 4.89e+07 a.u. and 3.76e+07 a.u. and 2.06e+07 a.u. |
| NCI-H1437 | 96 h | 2.44e+07 a.u. and 2.49e+07 a.u. and 2.57e+07 a.u. and 3.07e+07 a.u. and 2.99e+07 a.u. and 2.88e+07 a.u. |
| A375 | 48 h | 2.92e+07 a.u. and 2.76e+07 a.u. and 1.3e+07 a.u. and 2.38e+07 a.u. and 1.06e+07 a.u. and 1.29e+07 a.u. |
| A375 | 306.52 h | 1.73e+08 a.u. and 1.95e+08 a.u. and 1.76e+08 a.u. and 1.79e+08 a.u. and 2e+08 a.u. and 1.72e+08 a.u. |
| IPC-298 | 72 h | 3.08e+07 a.u. and 2.43e+07 a.u. and 3.27e+07 a.u. and 3.47e+07 a.u. and 2.68e+07 a.u. and 2.86e+07 a.u. |
| IPC-298 | 264 h | 4.05e+07 a.u. and 2.81e+07 a.u. and 4.26e+07 a.u. and 3.13e+07 a.u. and 3.5e+07 a.u. and 2.66e+07 a.u. |

Set 4
SMILES: Cc1nccc(COC(=O)N2C[C@@H]3[C@@H](CNC(=O)c4ccc5[nH]nnc5c4)[C@@H]3C2)n1
Observed: cell-free assay
Method: competition with immobilised ligand
Tested at: 1 µM
| target | remaining binding |
| --- | --- |
| Tyrosine-protein kinase ABL1, phosphorylated (ABL1, Homo sapiens, UniProt P00519, H396P) | 85% |
| STK32B (Homo sapiens, UniProt Q9NY57) | 97% |
| MARK1 (Homo sapiens, UniProt Q9P0L2) | 84% |
| ULK1 (Homo sapiens, UniProt O75385) | 93% |
| MUSK (Homo sapiens, UniProt O15146) | 100% |
| TRPM6 (Homo sapiens, UniProt Q9BX84) | 85% |
| eIF-2-alpha kinase GCN2, C-terminal kinase domain (EIF2AK4, Homo sapiens, UniProt Q9P2K8, S808G) | 84% |
| CAMK1G (Homo sapiens, UniProt Q96NX5) | 100% |
| FLT3 (Homo sapiens, UniProt P36888, F691L/ITD) | 79% |
| TLK2 (Homo sapiens, UniProt Q86UE8) | 100% |
| PIK3CA (Homo sapiens, UniProt P42336, M1043I) | 100% |
| NEK2 (Homo sapiens, UniProt P51955) | 100% |
| MYLK3 (Homo sapiens, UniProt Q32MK0) | 97% |
| HIPK4 (Homo sapiens, UniProt Q8NE63) | 84% |
| MAPK8 (Homo sapiens, UniProt P45983) | 84% |
| ULK2 (Homo sapiens, UniProt Q8IYT8) | 77% |

Other studies, line by line
| Compound | target or system | test | test system | conditions | scale | measurement | result |
| --- | --- | --- | --- | --- | --- | --- | --- |
| C[C@@H]1CN(c2ccc(-c3cc(C(=O)NCCOCCOCCOCCOCCOCCOCCOCCOCCOCCNC(=O)/C=C/c4[nH]cc(C(=O)N[C@@H](CC(N)=O)c5ccc(F)c(Cl)c5)c4-c4ccc(Cl)cc4F)ccc3F)cc2NC(=O)c2c[nH]c(=O)cc2C(F)(F)F)C[C@H](C)N1C | WDR5 (Homo sapiens, UniProt P61964) | degrader, Jess capillary immunoassay, item: WDR5 over vinculin | – | 1821 nM, 24 h | reference: DMSO | remaining protein level | 51.2% and 56.4% and 50.5% |
| CC(C)n1cnc(-c2ccc(F)cc2)c1-c1ncc(C(=O)Nc2ccc(N3CCN(C)CC3)cc2)[nH]1 | – | – | IPF patients | 60 mg once daily, adverse event | – | Coagulopathy incidence | 0% |
| CCOC(=O)[C@@H]1CSCC(=O)N[C@H](CC)C(=O)N(CC(C)C)CC(=O)N[C@@H](CC(C)C)C(=O)N(C)[C@H](C)C(=O)N(C)[C@@H](C)C(=O)N[C@H](CC(C)C)C(=O)N(C)[C@@H](C)C(=O)N[C@@H](CC(C)C)C(=O)N1C | – | PRP-column chromatography | – | – | – | log k' (60) | 0.861 |

Repeated from above (set 4):
| target | remaining binding |
| --- | --- |
| HIPK4 (Homo sapiens, UniProt Q8NE63) | 84% |
| TLK2 (Homo sapiens, UniProt Q86UE8) | 100% |
| ULK1 (Homo sapiens, UniProt O75385) | 93% |
| MUSK (Homo sapiens, UniProt O15146) | 100% |
